Measurements from different studies.
Read-out: binding
Chain of UniProt P57059 (whole entry, looked up): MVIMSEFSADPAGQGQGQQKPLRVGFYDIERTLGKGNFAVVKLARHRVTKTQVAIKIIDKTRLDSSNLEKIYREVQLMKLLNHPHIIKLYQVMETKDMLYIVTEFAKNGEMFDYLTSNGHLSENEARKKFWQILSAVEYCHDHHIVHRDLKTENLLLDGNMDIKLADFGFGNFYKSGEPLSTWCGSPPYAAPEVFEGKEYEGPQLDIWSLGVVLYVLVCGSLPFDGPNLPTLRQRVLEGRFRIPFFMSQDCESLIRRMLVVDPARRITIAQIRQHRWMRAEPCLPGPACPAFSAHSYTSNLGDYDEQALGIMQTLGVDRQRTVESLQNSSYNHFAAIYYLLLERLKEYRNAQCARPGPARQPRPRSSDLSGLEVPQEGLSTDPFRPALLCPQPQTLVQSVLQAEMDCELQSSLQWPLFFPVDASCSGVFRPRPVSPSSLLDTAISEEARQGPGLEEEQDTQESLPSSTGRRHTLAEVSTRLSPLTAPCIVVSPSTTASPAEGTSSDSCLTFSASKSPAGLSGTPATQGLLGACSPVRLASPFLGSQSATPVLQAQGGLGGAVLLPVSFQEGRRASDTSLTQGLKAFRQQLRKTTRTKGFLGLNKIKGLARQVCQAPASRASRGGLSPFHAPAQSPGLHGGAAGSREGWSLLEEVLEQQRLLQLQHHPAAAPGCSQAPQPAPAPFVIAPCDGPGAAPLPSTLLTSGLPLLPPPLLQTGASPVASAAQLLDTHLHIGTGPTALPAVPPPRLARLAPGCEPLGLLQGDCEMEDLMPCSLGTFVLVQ
Chain of UniProt O14757 (whole entry, looked up): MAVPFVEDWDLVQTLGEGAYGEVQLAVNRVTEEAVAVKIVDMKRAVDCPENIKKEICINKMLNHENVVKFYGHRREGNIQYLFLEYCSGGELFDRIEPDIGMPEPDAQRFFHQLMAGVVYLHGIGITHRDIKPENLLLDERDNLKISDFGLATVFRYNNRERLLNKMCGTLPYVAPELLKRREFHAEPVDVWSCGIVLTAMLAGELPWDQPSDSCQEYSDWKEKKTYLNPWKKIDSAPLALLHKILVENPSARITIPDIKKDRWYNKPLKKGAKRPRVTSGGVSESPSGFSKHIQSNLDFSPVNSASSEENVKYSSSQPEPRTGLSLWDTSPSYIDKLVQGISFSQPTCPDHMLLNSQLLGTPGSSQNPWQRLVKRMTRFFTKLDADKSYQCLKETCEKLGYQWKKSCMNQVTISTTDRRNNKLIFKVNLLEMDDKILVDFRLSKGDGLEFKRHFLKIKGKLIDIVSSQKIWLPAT
Chain of UniProt Q9BWU1 (whole entry, looked up): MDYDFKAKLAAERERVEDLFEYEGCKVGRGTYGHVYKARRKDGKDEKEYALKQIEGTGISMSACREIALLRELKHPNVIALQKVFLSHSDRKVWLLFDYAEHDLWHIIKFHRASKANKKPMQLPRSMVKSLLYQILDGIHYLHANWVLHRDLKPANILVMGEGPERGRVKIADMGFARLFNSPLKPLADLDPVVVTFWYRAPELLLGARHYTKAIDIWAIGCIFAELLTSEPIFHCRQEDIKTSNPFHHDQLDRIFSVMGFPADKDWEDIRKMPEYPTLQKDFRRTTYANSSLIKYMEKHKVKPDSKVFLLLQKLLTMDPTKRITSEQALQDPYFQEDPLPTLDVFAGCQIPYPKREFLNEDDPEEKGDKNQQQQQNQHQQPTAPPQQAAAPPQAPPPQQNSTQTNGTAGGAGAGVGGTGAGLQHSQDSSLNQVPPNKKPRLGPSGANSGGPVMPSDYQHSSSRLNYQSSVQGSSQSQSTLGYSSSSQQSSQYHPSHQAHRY
Chain of UniProt Q02779 (whole entry, looked up): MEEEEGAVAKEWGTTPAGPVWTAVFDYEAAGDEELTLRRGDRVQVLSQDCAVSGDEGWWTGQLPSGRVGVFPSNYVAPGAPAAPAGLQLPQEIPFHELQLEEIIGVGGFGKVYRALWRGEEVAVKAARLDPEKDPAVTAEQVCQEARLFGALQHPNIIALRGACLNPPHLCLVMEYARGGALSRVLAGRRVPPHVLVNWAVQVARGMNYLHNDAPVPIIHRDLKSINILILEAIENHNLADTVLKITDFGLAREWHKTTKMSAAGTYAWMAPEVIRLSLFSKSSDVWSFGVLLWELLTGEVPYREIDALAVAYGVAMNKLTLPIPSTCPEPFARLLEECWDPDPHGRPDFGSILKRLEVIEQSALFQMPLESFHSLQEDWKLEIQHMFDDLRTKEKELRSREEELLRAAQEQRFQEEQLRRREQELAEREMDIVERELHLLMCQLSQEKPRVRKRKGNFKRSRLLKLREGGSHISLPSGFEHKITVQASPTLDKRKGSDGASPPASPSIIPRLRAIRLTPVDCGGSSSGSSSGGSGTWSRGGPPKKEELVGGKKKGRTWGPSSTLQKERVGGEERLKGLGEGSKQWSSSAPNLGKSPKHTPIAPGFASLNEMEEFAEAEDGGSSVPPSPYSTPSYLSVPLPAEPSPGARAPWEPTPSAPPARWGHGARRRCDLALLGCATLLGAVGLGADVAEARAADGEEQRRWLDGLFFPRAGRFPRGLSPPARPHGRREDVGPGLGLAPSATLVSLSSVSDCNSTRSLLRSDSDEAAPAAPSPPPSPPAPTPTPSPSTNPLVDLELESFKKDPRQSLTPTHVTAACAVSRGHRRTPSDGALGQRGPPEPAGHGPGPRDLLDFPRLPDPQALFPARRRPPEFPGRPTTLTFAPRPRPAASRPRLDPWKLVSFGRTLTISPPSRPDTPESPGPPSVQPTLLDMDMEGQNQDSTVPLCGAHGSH
Chain of UniProt P62344 (whole entry, looked up): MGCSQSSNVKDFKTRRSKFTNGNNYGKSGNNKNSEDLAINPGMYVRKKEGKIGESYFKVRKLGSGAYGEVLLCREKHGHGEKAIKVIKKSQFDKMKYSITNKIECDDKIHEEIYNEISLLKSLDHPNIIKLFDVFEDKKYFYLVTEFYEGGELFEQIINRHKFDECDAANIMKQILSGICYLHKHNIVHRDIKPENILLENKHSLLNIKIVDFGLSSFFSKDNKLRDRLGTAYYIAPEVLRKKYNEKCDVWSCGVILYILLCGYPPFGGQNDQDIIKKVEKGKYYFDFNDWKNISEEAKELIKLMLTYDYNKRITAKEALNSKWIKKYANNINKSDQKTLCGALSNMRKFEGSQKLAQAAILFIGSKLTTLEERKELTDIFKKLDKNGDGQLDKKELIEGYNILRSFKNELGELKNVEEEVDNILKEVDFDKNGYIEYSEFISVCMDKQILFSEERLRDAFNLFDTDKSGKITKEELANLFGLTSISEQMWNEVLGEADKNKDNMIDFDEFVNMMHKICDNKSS
Chain of UniProt Q8NG66 (whole entry, looked up): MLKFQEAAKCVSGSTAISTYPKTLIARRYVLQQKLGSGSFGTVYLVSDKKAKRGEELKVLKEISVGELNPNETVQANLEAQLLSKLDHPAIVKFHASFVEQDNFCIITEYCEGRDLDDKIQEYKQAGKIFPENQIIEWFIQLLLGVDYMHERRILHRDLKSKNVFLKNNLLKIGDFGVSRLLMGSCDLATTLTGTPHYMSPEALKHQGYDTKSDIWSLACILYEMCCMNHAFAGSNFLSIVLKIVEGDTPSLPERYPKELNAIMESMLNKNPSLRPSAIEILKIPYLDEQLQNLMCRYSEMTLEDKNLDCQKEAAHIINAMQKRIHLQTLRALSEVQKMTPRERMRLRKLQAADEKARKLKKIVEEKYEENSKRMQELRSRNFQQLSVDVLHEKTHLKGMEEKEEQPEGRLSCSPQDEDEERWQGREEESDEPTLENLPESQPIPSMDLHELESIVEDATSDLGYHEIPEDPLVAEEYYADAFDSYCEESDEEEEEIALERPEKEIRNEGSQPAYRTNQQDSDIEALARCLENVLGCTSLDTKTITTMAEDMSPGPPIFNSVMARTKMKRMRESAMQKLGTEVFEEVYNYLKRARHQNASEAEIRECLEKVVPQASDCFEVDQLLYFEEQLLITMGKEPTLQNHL
Chain of UniProt P42336 (whole entry, unmodified, looked up): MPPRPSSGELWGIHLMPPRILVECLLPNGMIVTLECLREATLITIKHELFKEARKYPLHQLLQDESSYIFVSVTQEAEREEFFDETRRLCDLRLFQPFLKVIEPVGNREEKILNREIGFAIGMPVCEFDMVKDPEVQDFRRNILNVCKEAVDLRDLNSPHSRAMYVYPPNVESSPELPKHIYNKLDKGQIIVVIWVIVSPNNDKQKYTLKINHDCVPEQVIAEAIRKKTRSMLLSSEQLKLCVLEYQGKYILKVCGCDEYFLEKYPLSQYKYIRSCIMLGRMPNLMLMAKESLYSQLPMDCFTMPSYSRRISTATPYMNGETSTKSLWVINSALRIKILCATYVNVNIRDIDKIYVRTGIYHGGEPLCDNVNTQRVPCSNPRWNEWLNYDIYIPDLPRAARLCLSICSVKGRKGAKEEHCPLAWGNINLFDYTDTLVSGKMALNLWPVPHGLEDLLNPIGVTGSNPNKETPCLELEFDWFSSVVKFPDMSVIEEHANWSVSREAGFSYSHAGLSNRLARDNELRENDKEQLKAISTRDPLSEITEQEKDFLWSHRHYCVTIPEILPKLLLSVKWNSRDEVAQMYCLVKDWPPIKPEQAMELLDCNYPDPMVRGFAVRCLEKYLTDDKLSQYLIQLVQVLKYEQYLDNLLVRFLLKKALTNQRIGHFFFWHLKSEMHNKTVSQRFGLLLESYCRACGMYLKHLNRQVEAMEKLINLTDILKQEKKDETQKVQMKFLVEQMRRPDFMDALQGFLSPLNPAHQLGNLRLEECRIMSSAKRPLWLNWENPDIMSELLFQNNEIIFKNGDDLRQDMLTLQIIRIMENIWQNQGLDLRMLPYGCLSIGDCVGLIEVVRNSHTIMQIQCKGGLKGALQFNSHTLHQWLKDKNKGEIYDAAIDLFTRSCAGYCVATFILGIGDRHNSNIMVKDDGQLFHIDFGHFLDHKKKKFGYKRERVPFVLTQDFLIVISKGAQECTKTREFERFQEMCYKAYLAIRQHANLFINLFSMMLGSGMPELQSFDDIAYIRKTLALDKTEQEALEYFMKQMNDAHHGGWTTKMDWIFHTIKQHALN

SMILES | target | technique | concentration | remaining binding
CC1CCCN1c1nccc(-c2cnn3ncccc23)n1 (centres unmarked) | CDK19 (Homo sapiens, UniProt Q9BWU1) |  | 1 µM | 100%
C=CC(=O)N1CCC(COCC(=O)N2CCN(c3nc(-c4cnc(N)nc4C(F)F)nc(N4CCOC[C@@H]4C)n3)CC2)CC1 | NEK11 (Homo sapiens, UniProt Q8NG66) | competition with immobilised ligand | 1 µM | 65%
N[C@H]1CCN(c2nccc(-c3cnn4ncccc34)n2)C1 | SIK1 (Homo sapiens, UniProt P57059) |  | 1 µM | 100%
C1=C/COCc2cc(ccc2OCCN2CCCC2)Nc2nccc(n2)-c2cccc(c2)COC/1 | PIK3CA (Homo sapiens, UniProt P42336, C420R) |  | 0.1 µM | 63%
Cc1cc(S(=O)(=O)N[C@H]2CC[C@H](CN3CCN(c4ccc(C5CCC(=O)NC5=O)cc4F)CC3)CC2)ccc1Nc1ncc(C(F)(F)F)c(N2CCC[C@](C)(O)C2)n1 (some centres unmarked) | MAPK7 (Homo sapiens, UniProt Q13164) | competition with immobilised ligand | 1 µM | 4%
CCCCC(=O)Nc1ccc(-c2ccc3ncn(CCC)c(=O)c3c2)cn1 | MAP3K10 (Homo sapiens, UniProt Q02779) | competition with immobilised ligand | 0.5 µM | 100%
Cc1cc([C@@H](C)Nc2ccccc2C(=O)O)c2nc(N3CCC(F)(F)CC3)c(C#N)c(=O)n2c1 | CHEK1 (Homo sapiens, UniProt O14757) | competition with immobilised ligand | 1 µM | 93%
C[C@@H](c1ccc(-n2cnc3c(N)ncnc32)cc1)N1CCc2nn(C)c(Cc3ccccc3)c2C1=O | CDPK1 (Plasmodium falciparum, UniProt P62344) | competition with immobilised ligand | 0.1 µM | 8.9%

Repeated from above:
SMILES | target | technique | concentration | remaining binding
CC1CCCN1c1nccc(-c2cnn3ncccc23)n1 (centres unmarked) | CDK19 (Homo sapiens, UniProt Q9BWU1) |  | 1 µM | 100%
